Measurements collected from several papers.
Numbered parts are unrelated; each lists some results of a single study. Changes are numbered by the printed parent chain.

Sample 1
Target: ABI1, truncated, D143A, DHFR fusion (Arabidopsis thaliana)
Method: DHFR PCA, deep sequencing
Matrix: yeast
Notes: methotrexate growth selection, single substitutions
Added: (+)-ABA 17 µM
Reference: wild-type fitted maximum
Reading: higher = stronger binding
Starting sequence: PYL1, truncated, DHFR fusion (Arabidopsis thaliana); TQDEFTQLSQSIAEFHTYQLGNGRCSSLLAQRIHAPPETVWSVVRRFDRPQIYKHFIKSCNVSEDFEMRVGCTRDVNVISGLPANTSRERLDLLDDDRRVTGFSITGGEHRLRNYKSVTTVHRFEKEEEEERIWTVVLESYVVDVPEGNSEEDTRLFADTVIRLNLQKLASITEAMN
Variant	relative binding score [%]
I79H	87.5
R113F	61.6
E127W	75.6
Q167Y	42.4
T6P	92.9
Q7V	82.3
V43F	66.8
T173S	85.2
E147I	72.8
R24A	68
D96A	6.65
A158E	-5.65
T119I	57.5
I79N	53.5
I52S	78.2
I105T	37.8
L164D	11.4
Y115L	8.24
E147L	76.2
V137Q	-4.92

Sample 2
Target: CREB3L2, bZIP domain (human)
Method: DHFR protein complementation
Matrix: yeast
Notes: single substitutions, most at no-binding floor
Reference: wild-type JUN-FOS pair
Reading: higher = stronger binding
Starting sequence: JUN, bZIP domain (human); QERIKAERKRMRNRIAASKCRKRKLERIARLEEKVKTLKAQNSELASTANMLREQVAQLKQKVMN; partner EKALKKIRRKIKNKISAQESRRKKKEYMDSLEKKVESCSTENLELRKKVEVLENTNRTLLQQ
Variant	binding fitness
L38V	-1.56 natural log
E44Q	-0.973 natural log
M51R	-1.42 natural log
A46T	-1.41 natural log
R30H	-1.4 natural log
L31W	-1.54 natural log
E32T	-1.53 natural log
L31A	-1.43 natural log
K39H	-1.46 natural log
N42Q	-1.44 natural log
N42S	-1.51 natural log
A46W	-1.4 natural log
E54D	-1.38 natural log
S47E	-1.41 natural log

Sample 3
Target: Phosphate system positive regulatory protein PHO4, full length, GST-tagged (PHO4, Saccharomyces cerevisiae, UniProt P07270, residues 1-312)
Method: competition protein-binding microarray
Molecule type: double-stranded DNA, one strand shown
Matrix: in vitro
Tested at: 2 µM
Notes: whole 60-bp probe, lowest competitor level
Added: Cbf1 competitor, 0.05 µM
Reading: higher = stronger binding
Target sequence (chain): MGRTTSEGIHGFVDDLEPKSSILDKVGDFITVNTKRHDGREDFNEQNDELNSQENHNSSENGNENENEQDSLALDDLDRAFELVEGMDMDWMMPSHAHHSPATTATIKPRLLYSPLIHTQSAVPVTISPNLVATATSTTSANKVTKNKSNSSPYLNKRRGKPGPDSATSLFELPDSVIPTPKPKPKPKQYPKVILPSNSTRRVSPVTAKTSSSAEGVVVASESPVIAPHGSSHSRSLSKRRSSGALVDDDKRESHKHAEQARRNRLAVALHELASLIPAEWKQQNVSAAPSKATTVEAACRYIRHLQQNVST
Strand	fluorescence intensity
GGATTTGATTACCATCACGTGATGGAATGCTTTTGTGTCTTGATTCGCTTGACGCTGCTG	14600 a.u.
GCTCTTCATACCCCTCCCGTGGAACTAGTTCGGAAGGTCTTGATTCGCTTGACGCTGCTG	5690 a.u.
AAAGCGGTAATTTTTCACGTGTTTTCACATATCTATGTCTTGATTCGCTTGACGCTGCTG	14100 a.u.
CTCTGCGGTGGCAGCAACGTGACGGTATAGTGTGTAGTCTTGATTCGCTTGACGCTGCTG	12700 a.u.
CATACCCAACCTTGTCACCGGACTTAAGATATTTGTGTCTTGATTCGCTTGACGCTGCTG	3440 a.u.
CGGGGTTAAGTTTGTCACTCCACTTGCTTGCAGCAGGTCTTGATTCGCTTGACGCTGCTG	3850 a.u.
GTCTTGTCTCATTTTCACGTGCGTTTCCCCACTTCAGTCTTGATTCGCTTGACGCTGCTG	14400 a.u.
AAAGCGGTAATTTTTCACGTGTGCTCACATATCTATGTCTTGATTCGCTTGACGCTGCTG	12400 a.u.
GTCTTGTCTCATTGATATGTGGGTGTCCCCACTTCAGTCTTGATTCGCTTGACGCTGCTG	4900 a.u.
GTCTTGTCTCATTTGCACGTGTTTTTCCCCACTTCAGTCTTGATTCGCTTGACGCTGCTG	18400 a.u.
ATTAGTTCTGGTGCCATCGTGTCGGCTTTACCACAAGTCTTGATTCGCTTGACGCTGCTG	7930 a.u.
CGTCCTAGTGATTGTCACGTGTTTTCCATGAGGAAGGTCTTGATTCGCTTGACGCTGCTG	15800 a.u.
ACCCTCTTGGCCATTCGCGTGCGGATTGATTGCCGGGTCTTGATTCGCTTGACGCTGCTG	8070 a.u.
ATGCAAATGCCTCACCACGTGCAAATGTGAAAAGAGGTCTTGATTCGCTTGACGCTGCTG	19100 a.u.
TGCGCAACAACTTTTCACGTGGGCTTATGTCTAGAAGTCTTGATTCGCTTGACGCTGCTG	14700 a.u.
CCATTGGAAACAGTGCTCGTGCATCTTGATGTTATTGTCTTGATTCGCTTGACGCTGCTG	10200 a.u.
AAAGCGGTAATTTAACACGTGTTTTCACATATCTATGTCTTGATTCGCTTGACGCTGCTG	21300 a.u.
CTAACGAAGGTTTGAACCGTGGGTGACAAGCCAAGTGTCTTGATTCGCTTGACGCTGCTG	7140 a.u.

Sample 4
Target: UBE2Q2 UBC core domain (UniProt Q8WVN8)
Chain of UniProt Q8WVN8 (whole entry, looked up): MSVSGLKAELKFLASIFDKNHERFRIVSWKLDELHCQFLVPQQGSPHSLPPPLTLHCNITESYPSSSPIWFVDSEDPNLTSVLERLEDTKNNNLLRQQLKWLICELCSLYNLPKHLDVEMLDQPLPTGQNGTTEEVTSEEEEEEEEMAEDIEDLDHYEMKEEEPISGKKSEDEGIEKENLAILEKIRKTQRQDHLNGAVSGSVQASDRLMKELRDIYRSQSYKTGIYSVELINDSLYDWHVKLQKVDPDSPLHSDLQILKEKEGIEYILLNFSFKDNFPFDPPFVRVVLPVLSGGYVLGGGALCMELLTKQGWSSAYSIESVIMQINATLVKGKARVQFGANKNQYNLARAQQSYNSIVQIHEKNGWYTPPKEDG
Method: yeast two-hybrid
Matrix: yeast
Notes: mostly zero background
Reference: not given
Reading: higher = stronger interaction
B1: RNF182 RING domain (UniProt Q8N6D2); chain AESQASDELECKICYNRYNLKQRKPKVLECCHRVCAKCLYKIIDFGDSPQGVIVCPFCRFETCLPDDEV
B2: RING1 RING domain (UniProt Q06587); chain SPRSLHSELMCPICLDMLKNTMTTKECLHRFCSDCIVTALRSGNKECPTCRKKLVSKRSLR
B3: ZMYND11 RING domain (UniProt Q15326); chain DEIDWETENHDWYCFECHLPGEVLICDLCFRVYHSKCLSDEFRLRDSSSPWQCPVCRSIKKKNTNKQEM
B4: CNOT4 RING domain (UniProt O95628); chain MSRSPDAKEDPVECPLCMEPLEIDDINFFPCTCGYQICRFCWHRIRTDENGLCPACRKPYPED
B5: MKRN3 RING domain (UniProt Q13064); chain FAVQRGMDKVCGICMEVVYEKANPNDRRFGILSNCNHSFCIRCIRRWRSARQFENRIVKSCPQCRVTSELVIPSE
B6: MID2 RING domain (UniProt Q9UJV3); chain KMETLESELTCPICLELFEDPLLLPCAHSLCFSCAHRILVSSCSSGESIEPITAFQCPTCRYVISLNHRGL
Sequence	lacZ reporter activity
B1 (RNF182 RING domain)	0
B2 (RING1 RING domain)	0
LVKDFNPYITCYICKGYLIKPTTVTECLHTFCKTCIVQHFEDSNDCPRCGNQVHETNPLE (PCGF5 RING domain (UniProt Q86SE9))	0
B3 (ZMYND11 RING domain)	0
EIKEYKARLTCPCCNTRKKDAVLTKCFHVFCFECVRGRYEARQRKCPKCNAAFGAHDFHR (RNF40 RING domain (UniProt O75150))	0
B4 (CNOT4 RING domain)	0
FDPPLESKYECPICLMALREAVQTPCGHRFCKACIIKSIRDAGHKCPVDNEILLENQLFP (TRAF6 RING domain (UniProt Q9Y4K3))	0
B5 (MKRN3 RING domain)	0
ASEEEFQFLRCQQCQAEAKCPKLLPCLHTLCSGCLEASGMQCPICQAPWPLGADTP (PML RING domain (UniProt P29590))	0
DDVLTKDAGECVICLEELLQGDTIARLPCLCIYHKSCIDSWFEVNRSCPEHPAD (ZNRF1 RING domain (UniProt Q8ND25))	0
LEALSSDFLACKICLEQLRAPKTLPCLHTYCQDCLAQLADGGRVRCPECRETVPVPPEGV (TRIM56 RING domain (UniProt Q9BRZ2))	0
ASPKIFQKTKCSICNSALELPSVHFLCGHSFHQHCFESYSESDADCPTCLPENRKVMDMI (VPS11 RING domain (UniProt Q9H270))	0
B6 (MID2 RING domain)	0

Sample 5
Target: Sal-like protein 4, full length isoform B (SALL4, Homo sapiens, UniProt Q9UJQ4-2, residues 1-616)
Method: universal PBM
Molecule type: double-stranded DNA, one strand shown
Matrix: in vitro
Tested at: not given
Notes: 8-mer, flanks averaged, mean of replicates
Reading: higher = stronger binding
Target sequence (chain): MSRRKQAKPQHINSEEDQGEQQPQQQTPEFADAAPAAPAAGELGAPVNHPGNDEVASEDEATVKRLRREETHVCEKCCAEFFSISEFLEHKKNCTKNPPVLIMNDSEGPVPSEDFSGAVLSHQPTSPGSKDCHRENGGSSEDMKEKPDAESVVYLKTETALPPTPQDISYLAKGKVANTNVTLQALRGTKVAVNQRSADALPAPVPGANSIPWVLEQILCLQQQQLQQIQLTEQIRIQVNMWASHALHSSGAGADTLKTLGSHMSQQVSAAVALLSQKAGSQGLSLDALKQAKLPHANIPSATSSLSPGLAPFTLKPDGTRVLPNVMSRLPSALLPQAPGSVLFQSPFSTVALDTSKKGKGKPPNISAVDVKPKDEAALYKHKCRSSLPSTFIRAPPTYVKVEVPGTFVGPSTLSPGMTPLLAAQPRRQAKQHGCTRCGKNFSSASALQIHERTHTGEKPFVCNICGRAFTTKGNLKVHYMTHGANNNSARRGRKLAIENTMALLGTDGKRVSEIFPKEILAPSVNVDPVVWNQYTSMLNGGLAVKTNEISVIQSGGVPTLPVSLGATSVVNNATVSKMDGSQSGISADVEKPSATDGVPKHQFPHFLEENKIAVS
Strand	E-score
TCTCAGCA	-0.125
ACGTTGCG	-0.0881
TCCAACGA	0.0995
GGAGGAAA	-0.109
GAGTTGCC	-0.217
ATTACAGG	0.299
CTCGATCA	-0.138
AGAATCCC	0.0174
CCCCACCA	-0.224
AGTTGACA	0.126
CAAAGGCA	-0.0625
CTCACAGC	-0.158
TCATCGCA	0.102
ATACGTTG	0.126
TGGCAAAA	0.209
GCCGCACA	-0.0901
CTGTCCAA	-0.0731
AAACTTAA	0.258
CGCCGTGC	-0.241
ATAGCACA	0.124
CTTCGGCA	-0.233
ACCCCACG	-0.215
CTGTTTGA	0.0763
CTGCTCAA	-0.102
AAATTGGG	0.174

Sample 6
Target: CCNA1, cyclin fold, Cln2 fusion (human)
Method: yeast growth competition, sequencing
Matrix: yeast
Notes: weak parent motif
Reference: not given
Reading: higher = stronger binding
Starting sequence: RB1 docking peptide (human); PKPLKKLRFDIEG; partner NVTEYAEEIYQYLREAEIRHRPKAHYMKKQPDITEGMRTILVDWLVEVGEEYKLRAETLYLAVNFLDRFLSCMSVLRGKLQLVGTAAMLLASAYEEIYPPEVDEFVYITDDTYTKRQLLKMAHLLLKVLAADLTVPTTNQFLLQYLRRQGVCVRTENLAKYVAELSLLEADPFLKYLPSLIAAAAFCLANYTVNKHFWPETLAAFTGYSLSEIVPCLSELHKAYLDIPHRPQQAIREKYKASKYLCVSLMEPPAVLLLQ
Variant	normalised enrichment score
PKPLKKLRFPIEG [D10P]	0.525
PKPLKKSRFDIEG [L7S]	0.396
PKPLVKLRFDIEG [K5V]	-0.00546
PKPLKKLRFDIEI [G13I]	-0.233
PKPLKKLKFDIEG [R8K]	0.248
EKPLKKLRFDIEG [P1E]	0.535
PKPLKKARFDIEG [L7A]	0.289
PKPLKKLRFMIEG [D10M]	0.414
TKPLKKLRFDIEG [P1T]	0.322
PKPLKKLRFDHEG [I11H]	0.491
PKGLKKLRFDIEG [P3G]	0.383
PKPLAKLRFDIEG [K5A]	-0.0163
PKMLKKLRFDIEG [P3M]	0.253
PKPLKKLRFQIEG [D10Q]	0.103
PKPLGKLRFDIEG [K5G]	0.211
PKPLKKLRRDIEG [F9R]	0.203
PKPLKKNRFDIEG [L7N]	0.171
PKPLKDLRFDIEG [K6D]	0.394
PKPLKKLRFDIVG [E12V]	0.0476
PKPLKKLRFDIEY [G13Y]	-0.365
NKPLKKLRFDIEG [P1N]	0.344
PKPRKKLRFDIEG [L4R]	0.315
PKPLKKLCFDIEG [R8C]	0.0897
PKPLKKLRFDYEG [I11Y]	0.146
PKPLKKLRSDIEG [F9S]	0.19

Some of these lines once more (sample 5):
Strand	E-score
ATAGCACA	0.124
ATTACAGG	0.299
CTGCTCAA	-0.102
ACCCCACG	-0.215
CTCGATCA	-0.138
TCTCAGCA	-0.125
